Measurements collected from several papers.
Each line is one published result; not all experiments were run side by side. “And” joins repeats or separate records; there may be more than shown. ± gives the spread as reported.

SMILES | test | test system | setting | scale | endpoint | result
CC[C@H](C)[C@H](NC(=O)[C@H](CCCCN)NC(=O)CNC(=O)[C@H](CC(C)C)NC(=O)[C@H](Cc1ccccc1)NC(=O)[C@H](CCCCN)NC(=O)[C@H](CO)NC(=O)[C@H](Cc1ccccc1)NC(=O)[C@H](Cc1c[nH]c2ccccc12)NC(=O)[C@H](CCC(N)=O)NC(=O)[C@@H](NC(=O)[C@H](Cc1ccccc1)NC(=O)CCCCCNC(=O)CN1CCN(CC(=O)O)CCN(CC(=O)O)CCN(CC(=O)O)CC1)C(C)C)C(=O)N[C@@H](CCC(=O)O)C(=O)N1CCC[C@H]1C(=O)N[C@H](CC(=O)O)C(=O)N[C@H](C(=O)N[C@@H](CO)C(=O)N[C@@H](CCC(N)=O)C(=O)N[C@H](C(=O)N[C@@H](CCC(N)=O)C(=O)N[C@@H](CC(=O)O)C(=O)N1CCC[C@H]1C(=O)N[C@@H](CC(N)=O)C(=O)N[C@@H](CC(=O)O)C(=O)N[C@@H](CCC(N)=O)C(=O)N[C@@H](Cc1ccc(O)cc1)C(=O)N[C@@H](CCC(=O)O)C(=O)N1CCC[C@H]1C(=O)N[C@@H](Cc1ccccc1)C(=O)O)C(C)C)C(C)C [copper-64 labelled] | – | female mice, EMT6 tumour-bearing, spleen | 2 h, uncleavable control tracer, vehicle-treated | – | tissue uptake | 2.38 ± 0.19 %ID/g
O=C1NC2(CC2)COc2ncc(F)cc2[C@H]2COCCN2c2ccn3ncc1c3n2 | – | Sprague-Dawley rat, male, kidneys | oral, 20 mg/kg/day, 4 weeks, end of treatment | – | organ-to-brain weight ratio | 151 ± 24.1%
CCCCC/C=C\CCCO[Si](CCCCN(C)C)(OCCC/C=C\CCCCC)OCCC/C=C\CCCCC | – | cynomolgus monkey (Mauritius origin), male, plasma | intravenous infusion, 1 mg/kg, single dose | – | half-life | ~30 min
CC(=O)NCCCC[C@@H]1NC(=O)[C@H](Cc2c[nH]c3c(C)cccc23)NC(=O)[C@H]([C@@H](C)O)NC(=O)[C@H](CC(N)=O)NC(=O)[C@@H](NC(C)=O)C(C)(C)SSC(C)(C)[C@@H](C(=O)N[C@@H](Cc2ccc(OCCN)cc2)C(=O)N[C@@H](Cc2ccc3ccccc3c2)C(=O)NC2(C(=O)N[C@@H](CCC(=O)O)C(=O)N[C@@H](CC(N)=O)C(=O)N[C@@H](Cc3cccnc3)C(=O)N(C)CC(N)=O)CCOCC2)NC1=O | – | human, plasma | oral, 1000 mg, single dose, healthy volunteers | – | CL/F | 6530 L/h
CC[C@H](C)[C@H](NC(=O)[C@@H](NC(=O)[C@@H]1CCCN1C(=O)[C@@H](N)CCCNC(=N)N)C(C)C)C(=O)N[C@@H](CC(N)=O)C(=O)N[C@@H](CC(C)C)C(=O)N[C@@H](C)C(=O)N[C@@H](CS)C(=O)N[C@@H](CCCCN)C(=O)N[C@@H](CC(C)C)C(=O)N[C@@H](Cc1c[nH]c2ccccc12)C(=O)O | – | mouse red blood cells | – | – | minimal haemolytic concentration | 100 µM
CSCC[C@H](N)C(=O)N[C@@H](C)C(=O)N[C@@H](CCCNC(=N)N)C(=O)N[C@@H](CCCNC(=N)N)C(=O)N[C@@H](CC(=O)O)C(=O)N[C@@H](CCCCN)C(=O)N[C@H](C(=O)N[C@@H](CC(=O)O)C(=O)N[C@@H](Cc1ccccc1)C(=O)N[C@@H](C)C(=O)N[C@@H](CCCNC(=N)N)C(=O)N[C@@H](CCCNC(=N)N)C(=O)N[C@@H](CCCNC(=N)N)C(=O)N[C@@H](CCCNC(=N)N)C(=O)NCCCCCC(=O)NCCCCC(NC(=O)CCCCCNC(=O)[C@H](CCCNC(=N)N)NC(=O)[C@H](CCCNC(=N)N)NC(=O)[C@H](CCCNC(=N)N)NC(=O)[C@H](CCCNC(=N)N)NC(=O)[C@H](C)NC(=O)[C@H](Cc1ccccc1)NC(=O)[C@H](CC(=O)O)NC(=O)[C@@H](NC(=O)[C@H](CCCCN)NC(=O)[C@H](CC(=O)O)NC(=O)[C@H](CCCNC(=N)N)NC(=O)[C@H](CCCNC(=N)N)NC(=O)[C@H](C)NC(=O)[C@@H](N)CCSC)[C@@H](C)O)C(=O)NCCCCC(NC(=O)C(CCCCNC(=O)CCCCCNC(=O)[C@H](CCCNC(=N)N)NC(=O)[C@H](CCCNC(=N)N)NC(=O)[C@H](CCCNC(=N)N)NC(=O)[C@H](CCCNC(=N)N)NC(=O)[C@H](C)NC(=O)[C@H](Cc1ccccc1)NC(=O)[C@H](CC(=O)O)NC(=O)[C@@H](NC(=O)[C@H](CCCCN)NC(=O)[C@H](CC(=O)O)NC(=O)[C@H](CCCNC(=N)N)NC(=O)[C@H](CCCNC(=N)N)NC(=O)[C@H](C)NC(=O)[C@@H](N)CCSC)[C@@H](C)O)NC(=O)CCCCCNC(=O)[C@H](CCCNC(=N)N)NC(=O)[C@H](CCCNC(=N)N)NC(=O)[C@H](CCCNC(=N)N)NC(=O)[C@H](CCCNC(=N)N)NC(=O)[C@H](C)NC(=O)[C@H](Cc1ccccc1)NC(=O)[C@H](CC(=O)O)NC(=O)[C@@H](NC(=O)[C@H](CCCCN)NC(=O)[C@H](CC(=O)O)NC(=O)[C@H](CCCNC(=N)N)NC(=O)[C@H](CCCNC(=N)N)NC(=O)[C@H](C)NC(=O)[C@@H](N)CCSC)[C@@H](C)O)C(N)=O)[C@@H](C)O (some centres unmarked) | – | C57BL/6 mouse female, heart | dose not given, 3 h | relative to: total | tissue distribution | 0.81% and 0.62% and 0.54%
C#Cc1c(F)ccc2cc(O)cc(-c3ncc4c(N5CC6CCC(C5)N6C(=O)OC(C)OC(=O)CCC5CCCC5)nc(OC[C@@]56CCCN5C[C@H](F)C6)nc4c3F)c12 (some centres unmarked) | refers to: prodrug | mouse whole blood | 1 µM | – | t1/2 | 4.81 min
CC(CCC(=O)NCC(=O)O)C1CCC2C3C(O)CC4CC(OC5OC(C(=O)O)C(O)C(O)C5O)CCC4(C)C3CCC12C (centres unmarked) | – | women, T/C genotype, plasma | dose not given, geometric mean | – | plasma concentration | 29.6 ng/mL
CCCCCCCCCCCCCCCC(=O)N[C@@H](CCC(=O)NCCOCCOCCC(=O)NCCOCCOCCC(=O)NCCCC[C@H](NC(=O)[C@H](CC(=O)O)NC(=O)[C@H](CC(C)C)NC(=O)[C@H](Cc1ccc(O)cc1)NC(=O)[C@H](CCCCN)NC(=O)[C@H](CO)NC(=O)[C@H](Cc1ccc(O)cc1)NC(=O)[C@H](CC(=O)O)NC(=O)[C@H](CO)NC(=O)[C@@H](NC(=O)[C@H](Cc1ccccc1)NC(=O)[C@@H](NC(=O)CNC(=O)[C@H](CCC(N)=O)NC(=O)[C@@H](CO)NC(=O)[C@@H](N)Cc1c[nH]cn1)[C@@H](C)O)[C@@H](C)O)C(=O)N[C@@H](CCCNC(=N)N)C(=O)N[C@@H](CCCNC(=N)N)C(=O)N[C@@H](C)C(=O)N[C@@H](CCC(N)=O)C(=O)N[C@@H](CC(=O)O)C(=O)N[C@@H](Cc1ccccc1)C(=O)N[C@H](C(=O)N[C@@H](CCC(N)=O)C(=O)N[C@@H](Cc1c[nH]c2ccccc12)C(=O)N[C@@H](CC(C)C)C(=O)N[C@@H](CC(C)C)C(=O)N[C@@H](CC(N)=O)C(=O)N[C@H](C(=O)NCC(=O)NCC(=O)N1CCC[C@H]1C(=O)N[C@@H](CO)C(=O)N[C@@H](CO)C(=O)NCC(=O)N[C@@H](C)C(=O)N1CCC[C@H]1C(=O)N1CCC[C@H]1C(=O)N1CCC[C@H]1C(=O)N[C@@H](CO)C(N)=O)[C@@H](C)O)C(C)C)C(=O)O | – | rhesus monkey, female, plasma | subcutaneous, 20 µg/kg, day 1, toxicokinetics, mean | – | AUC(0-t) | 106 ng·h/mL
C=C/C=C/C[C@@H](C)[C@@H](O)[C@H]1C(=O)N[C@@H](CC)C(=O)N(C)CC(=O)N(C)[C@@H](CC(C)C)C(=O)N[C@@H](C(C)C)C(=O)N(C)[C@@H](CC(C)C)C(=O)N[C@@H](C)C(=O)N[C@H](C)C(=O)N(C)[C@@H](CC(C)C)C(=O)N(C)[C@@H](CC(C)C)C(=O)N(C)[C@@H](C(C)C)C(=O)N1C | – | Wistar Kyoto rat, male, plasma | ip, 0.5 mg/kg/day, day 28, at sacrifice | – | plasma Cl- level | 101 ± 1 mmol/L
CN1Cc2cc(Cl)ccc2-n2c(nnc2C2CCN(c3cccc([18F])n3)CC2)C1 | PET two-tissue compartment model | rhesus monkey, male, striatum | intravenous, dose not given, 70 min scan, baseline scan | – | total volume of distribution | 1.06 ± 0.3 mL/cm3
C/C(=N\OCCCN1CCCCC1)c1ccc(C(F)(F)F)cc1 | – | mouse, plasma | oral, 100 mg/kg once daily, day 1 | – | AUC(0-t) | 25300 ± 8520 ng·h/mL
CC(C)C[C@@H](NC(=O)[C@@H](CCCNC(=N)N)NC(=O)[C@@H](Cc1c[nH]cn1)NC(=O)[C@@H](Cc1c[nH]c2ccccc12)NC(=O)[C@@H](Cc1c[nH]cn1)NC(=O)[C@@H](Cc1ccccc1)NC(=O)[C@H](NC(=O)[C@@H](Cc1ccc(O)cc1)NC(=O)CNC(=O)CNC(=O)CCOCCOCCOCCNC(=O)CN1CCN(CC(=O)O)CCN(CC(=O)O)CC1)[C@H](C)O)C(=O)N[C@H](CC(N)=O)C(=O)N1CCC[C@@H]1C(=O)O [gallium-68 labelled] | – | C57BL/6 mice, male, brain | intravenous, 1.85 MBq, 60 min, added: GP12 blocking | – | tissue uptake | 0.54 ± 0.17 %ID/g
CCn1ccc(-c2cc(-c3cnn(C)c3)cc([C@@H](C)NC(=O)c3cc(OCCN(C)C)ccc3C)c2)n1 | – | mouse C57BL/6J, male, plasma | intravenous, 10 mg/kg | – | AUC extrapolated percentage | 0.109%
CCN(CC)CCOc1ccc(-c2nnn(Cc3ccc(OC)cc3)c2N)cc1 | metabolic stability | dog, liver microsomes | – | – | half-life | 45.9 min
COCC12CCC(OC)C34C5CC6(O)C(OC)C(O)C(O)(C5C6OC(=O)c5ccccc5)C(C(OC)C13)C4N(C)C2 (centres unmarked) | – | Sprague-Dawley rat, plasma | oral, dose not given, with NADES in PCW extract | – | Tmax | 45 min
CCCCCCCCCCCCCC(=O)N[C@@H](Cc1ccccc1)C(=O)N[C@@H](Cc1ccccc1)C(=O)N[C@@H](Cc1ccccc1)C(=O)N[C@@H](Cc1ccc(O)cc1)C(=O)NCC(=O)N[C@@H](CCCNC(=N)N)C(=O)N[C@@H](CCCCN)C(=O)N[C@@H](CCCCN)C(=O)N[C@@H](CCCNC(=N)N)C(=O)N[C@@H](CCCNC(=N)N)C(=O)N[C@@H](CCC(N)=O)C(=O)N[C@@H](CCCNC(=N)N)C(=O)N[C@@H](CCCNC(=N)N)C(=O)N[C@@H](CCCNC(=N)N)C(=O)O | – | 10 mM PBS | 64 µM, overnight, pH 7.4 | – | zeta potential | 13.1 mV

Some of these lines once more:
SMILES | test | test system | setting | scale | endpoint | result
O=C1NC2(CC2)COc2ncc(F)cc2[C@H]2COCCN2c2ccn3ncc1c3n2 | – | Sprague-Dawley rat, male, kidneys | oral, 20 mg/kg/day, 4 weeks, end of treatment | – | organ-to-brain weight ratio | 151 ± 24.1%
CCCCC/C=C\CCCO[Si](CCCCN(C)C)(OCCC/C=C\CCCCC)OCCC/C=C\CCCCC | – | cynomolgus monkey (Mauritius origin), male, plasma | intravenous infusion, 1 mg/kg, single dose | – | half-life | ~30 min
